Experimental data from different studies.
Each line is one published result; not all experiments were run side by side. Values joined by “and” are separate records of one study, mostly repeats; a detail may differ. ± marks the error that the study gave.
CYP3A7: Cytochrome P450 3A7 (CYP3A7, Homo sapiens, UniProt P24462)

The IC50 of `N=C(N)NC(=O)Cc1c(Cl)cccc1Cl` is reported as 2 µM (Plasmodium falciparum; HB3).
For `CO[C@H]1C[C@@H]2CC[C@@H](C)[C@@](O)(O2)C(=O)C(=O)N2CCCC[C@H]2C(=O)O[C@H]([C@H](C)C[C@@H]2CC[C@@H](OC(=O)NCCOCCOCCOCCOCCOCCOCCOCCOCCC(=O)N3CCc4cc(Cn5nc(-c6ccc7oc(N)nc7c6)c6c(N)ncnc65)ccc4C3)[C@H](OC)C2)C[C@@H](O)[C@H](C)/C=C(\C)[C@@H](O)[C@@H](OC)C(=O)[C@H](C)C[C@H](C)/C=C/C=C/C=C/1C`, “abdominal pain incidence” read 16.7% (patients with advanced solid tumours; intravenous, 12 mg weekly, any grade).
The dead embryos of `O=S(=O)(NCCNC/C=C/c1ccc(Br)cc1)c1cccc2cnccc12` is reported as 5% and 5.26% and 0% (PKA; inhibitor; mouse zygotes; 20 µM, Post hCG injection, 96 h, early embryonic development).
`CC1(C)C(C=C(Cl)Cl)C1C(=O)OC(C#N)c1ccc(F)c(Oc2ccccc2)c1` (stereo not drawn): “relative enzyme contribution” 0.24% (human microsomal CES2; IVIVE from expressed enzymes; human, 5 years old, expressed human CES2; 0.1 µM; reference: total hepatic CLint in vivo).
Under “grade 3 Diarrhoea”, `COc1cc2c(Oc3ccc4[nH]c(C)cc4c3F)ccnc2cc1OCC1(N)CC1` is recorded as 0% (paediatric recurrent refractory sarcoma; 8 mg/kg).
For `CN1CCN(Cc2ccc(NC(=O)c3cncc(C#Cc4cnc(N)c5ncccc45)c3)cc2C(F)(F)F)CC1`, the IC50 was over 30 µM (SCN5A (Homo sapiens, UniProt Q14524); sodium current, inhibitor).
The IC50 of `COc1cc(Nc2ncc(F)c(Nc3ccc4c(n3)NC(=O)C(C)(C)O4)n2)cc(OC)c1OC` is reported as over 10 µM (ALOX12 (Homo sapiens, UniProt P18054)).
For `C[C@H]1CN(c2n[nH]c3nc(N[C@H]4CC[C@H](NS(=O)(=O)CCC(F)(F)F)CC4)ncc23)CCO1`, the remaining binding was 0.94 (Structural maintenance of chromosomes protein 2 (Homo sapiens, UniProt O95347); Kinobeads competition, refers to: SMC2; 0.032 µM, unit not given; reference: vehicle).
With `COc1ccc(N2C(=O)N(c3c(C)cccc3Cl)Cc3cnc(Nc4ccc(C5CCN(C)CC5)cc4OC)nc32)nc1` the inhibition was -4.41% (GRK6 (Homo sapiens, UniProt P43250); kinase activity; 0.5 µM).
With `CC(=O)O[C@@H]1C[C@@]23C[C@@]24CC[C@H](O[C@@H]2OC[C@@H](O)[C@H](O)[C@H]2O)C(C)(C)[C@@H]4CC[C@H]3[C@]2(C)C[C@@H]3O[C@@]4(C[C@@H](C)[C@@H]3[C@@]12C)OC[C@@]1(C)O[C@@H]41` the reporter activation was under 1.5 fold (Nr1i2 (Mus musculus, UniProt O54915); luciferase reporter, activator; HepG2 transfected with mouse PXR; 10 to 50 µM, 24 h; reference: vehicle).
`Cc1cc2nc3c(=O)[nH]c(=O)nc-3n(C[C@H](O)[C@H](O)[C@H](O)COP(=O)(O)O)c2cc1C` gave a midpoint potential of -195 ± 5 mV (nfsB (Escherichia coli K-12, UniProt P38489, K14Q); bound cofactor redox, redox titration; pH 7.0, 25 °C, anaerobic).
`CC(C)=CC1C(C(=O)OC(C#N)c2cccc(Oc3ccccc3)c2)C1(C)C` (stereo not drawn): “enzyme contribution to CLint” 0.15% (human microsomal CES2; IVIVE from expressed enzymes; human, liver, in vivo scaled; age-specific).
`COc1ccc2cc1Oc1ccc(cc1)C[C@H]1c3cc(c(OC)cc3CCN1C)Oc1c(OC)c(OC)cc3c1[C@H](C2)N(C)CC3` has an inhibition of 20% (SLC22A8 (Homo sapiens, UniProt Q8TCC7); transport, inhibitor; 10 µM, added: ES).
`CCCC[C@H](NC(C)=O)C(=O)N[C@@H](CO)C(=O)N[C@H](C(=O)N1CCC[C@H]1C(=O)N[C@@H](C)C(=O)N[C@@H](CCCNC(=N)N)C(=O)N[C@@H](CCCNC(=N)N)C(=O)N[C@@H](CCCNC(=N)N)C(=O)N[C@@H](CC(C)C)C(=O)N[C@@H](CCCC)C(=O)N[C@@H](CCCNC(=N)N)C(=O)N[C@@H](CC(=O)O)C(=O)N[C@@H](Cc1ccccc1)C(=O)N[C@@H](CCCCN)C(=O)N[C@@H](CCCNC(=N)N)C(=O)N[C@@H](CC(C)C)C(=O)N[C@@H](CCC(N)=O)C(N)=O)[C@@H](C)O` has a remaining peptide of 0% (proteinase K; LC-MS; 25 µM, 102.4 min, pH 7.4).
`CC(C)CC(=O)OC[C@H]1O[C@@](C#N)(c2ccc3c(N)ncnn23)[C@H](O)[C@@H]1O` gave a recovery of 55.4% (ABCB1 (Homo sapiens, UniProt P08183); apical to basolateral transport; Caco-2; 90 µM, 2 h, added: zosuquidar 25 µM).
For `CC(=O)N[C@@H](CC(C)C)C(=O)N[C@H](C(=O)N[C@@H](Cc1ccccc1)C(=O)N[C@@]1(C)CCCC=CCCC[C@@](C)(C(=O)N[C@@H](CCC(N)=O)C(=O)N[C@@H](CC(C)C)C(=O)N[C@H](C(=O)N[C@@H](CO)C(N)=O)[C@@H](C)O)NC(=O)[C@H](Cc2c[nH]c3ccccc23)NC(=O)[C@H](Cc2ccc(O)cc2)NC(=O)[C@H](CCC(=O)O)NC1=O)[C@@H](C)O`, “remaining intact peptide” read 99% (Proteinase K (PROK, Engyodontium album, UniProt P06873); proteolytic stability; 120 min).
For `NCC(=O)NCCC(c1ccccc1)c1ccccc1`, the IC50 was 2.51 µM (Plasmodium falciparum; W2).
With `O=C(O)C(F)(F)C(F)(F)C(F)(F)C(F)(F)C(F)(F)C(F)(F)C(F)(F)F` the Hill coefficient was 1.48 (CYP3A7; type I binding spectrum; pH 7.4, second binding event).
`CC1(C)C(/C=C(\Cl)C(F)(F)F)C1C(=O)OC(C#N)c1cccc(Oc2ccccc2)c1` (stereo not drawn): “enzyme contribution to CLint” 38.8% (human cytosolic CES1; IVIVE from expressed enzymes; human, liver, in vivo scaled; age-specific).
The CLint of `O=C(O)C(F)(F)C(F)(F)C(F)(F)C(F)(F)C(F)(F)C(F)(F)C(F)(F)F` is reported as 1.85 ± 0.4 µL/min/mg (SLC22A12 (Homo sapiens, UniProt Q96S37); uptake, substrate; HEK293 cells stably expressing SLC22A12, HBSS with HEPES; pH 7.4).
`O=S(=O)(O)C(F)(F)C(F)(F)C(F)(F)C(F)(F)C(F)(F)C(F)(F)C(F)(F)C(F)(F)F` gave an inhibition of 71.5 ± 1.66% (CYP3A7; enzyme activity, inhibitor; 100 µM, added: dibenzylfluorescein 0.15 µM; reference: DMSO).
`Cn1nccc1[C@]1(CNC(=O)c2ccc(F)c(F)c2-c2ccc(C(F)(F)F)cc2)NC(=O)NC1=O` has an IC50 of over 20 µM (CYP3A4 (human); recombinant CYP3A4; added: midazolam; no inhibition up to value).
The intrinsic clearance of `CCN(C)C(=O)Oc1cccc([C@H](C)N(C)C)c1` is reported as 10.3 µL/min/mg protein (H+/organic cation antiporter; cell uptake; hCMEC/D3).
For `CC1(C)[C@H](C(=O)OCc2cccc(Oc3ccccc3)c2)[C@@H]1C=C(Cl)Cl`, “relative enzyme contribution” read 29.5% (human cytosolic CES1; IVIVE from expressed enzymes; human, 6 months old, expressed human CES1; 0.1 µM; reference: total hepatic CLint in vivo).

For quick reference, copied from above:
The IC50 of `N=C(N)NC(=O)Cc1c(Cl)cccc1Cl` is reported as 2 µM (Plasmodium falciparum; HB3).
`Cc1cc2nc3c(=O)[nH]c(=O)nc-3n(C[C@H](O)[C@H](O)[C@H](O)COP(=O)(O)O)c2cc1C` gave a midpoint potential of -195 ± 5 mV (nfsB (Escherichia coli K-12, UniProt P38489, K14Q); bound cofactor redox, redox titration; pH 7.0, 25 °C, anaerobic).
`CC(C)CC(=O)OC[C@H]1O[C@@](C#N)(c2ccc3c(N)ncnn23)[C@H](O)[C@@H]1O` gave a recovery of 55.4% (ABCB1 (Homo sapiens, UniProt P08183); apical to basolateral transport; Caco-2; 90 µM, 2 h, added: zosuquidar 25 µM).
The IC50 of `COc1cc(Nc2ncc(F)c(Nc3ccc4c(n3)NC(=O)C(C)(C)O4)n2)cc(OC)c1OC` is reported as over 10 µM (ALOX12 (Homo sapiens, UniProt P18054)).
